Results collected from several papers.
Numbered parts are unrelated; each lists some results of a single study. Substitutions count along the parent as printed.

Study 1 — technique: RNA Bind-n-Seq; molecule type: RNA; matrix: in vitro; tested at: 365 nM; relative to: no-protein control; reading: higher = stronger binding; endpoint: RBNS enrichment (R)
Target: RNA binding protein fox-1 homolog 2, RRM domain, GST-SBP tag (RBFOX2, Homo sapiens, UniProt O43251-10, residues 100-194)
Notes: natural RNA segment, single round, ends assumed
Residues (chain): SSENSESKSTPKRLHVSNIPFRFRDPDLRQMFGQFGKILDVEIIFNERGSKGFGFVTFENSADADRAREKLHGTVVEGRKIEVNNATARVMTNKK
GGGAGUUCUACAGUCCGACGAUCCCAUCGCAGAUGAGUGACAAGAGAGAAGGCUGUCAACACUUCGGUACAUGGUGAUCUUAAAAACACCCACCUGCACCAUCACACCAGACUGUACCACUAGGGCAUCCAGAUGGAAUUCUCGGGUGCCAA: 0.256
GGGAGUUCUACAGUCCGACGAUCGUGGCAUGGAGCUUGUGUCCUUGGACAACAAAUCUGGAUAUACUAGGAUUAAUUAUCAGAAGACAGCUCAGGCCAAGUUUUGAUCGUUCCAUACAGUACCUUGUUUAUCUUGGAAUUCUCGGGUGCCAA: 0.534
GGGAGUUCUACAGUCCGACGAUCAGAUAGUCUUGCCGCAUCUUGGCAAGUUGCAGAGAUGGUGGAGCUAGAAAAAAAAAAAAAAAAGCCCUUUUCAGUUUGUGCACUGUGUAUGGUCCGUGUAGAUUGAUGCAUGGAAUUCUCGGGUGCCAA: 2.43
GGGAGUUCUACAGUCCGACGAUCUUUGGAAACCCCUCUCCUCACCUCCCACCGUGACCUUGGGCAAACCCUGGCUCGGAGCCCAGGGCAGAGGCAGCUCAGAGUGGAGGCUCUAGGCAGGUUUGACAAAGGUCUGGAAUUCUCGGGUGCCAA: 0.524
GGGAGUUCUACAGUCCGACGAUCGCAGGACAAGGGGACUGGAAGAGGUUUCCUCAGAAGGCUCCCGGAACUUGGAGUCAGGCAUCGUGACUGGUAGGGCUCAGAACUGUUCCCAUCCCUUUCCCUGCUUCAGCUGGAAUUCUCGGGUGCCAA: 0.332
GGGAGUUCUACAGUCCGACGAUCACAGUUCAAAAAGUUCAUUUAUAAAAGUAGUUUCCUGUUCCUAGUGUGAUGUAUCACAAAUUGUGCUGAGGUUAUUUUAGUAUGUGUGUUUCAUUCCCGUGCUUCUGUUCUGGAAUUCUCGGGUGCCAA: 0.689
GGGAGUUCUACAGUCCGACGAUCUGAAGGUAAAACAUAGUGUAUCAUUGUGUAAACUCCCAGGCUUGAUGUAGCAGAAGAGAUCAUUUCUGGAGGCUUCAGCAAUGGAAUUUAGCAUUAUAAGAGAGAUUGGAUGGAAUUCUCGGGUGCCAA: 0.805
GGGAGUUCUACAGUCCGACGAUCCAAGACGCUAGACAUUCCAGAAUUAUUUUCCUUGGCCAUCCAAGUGAAGUAGAAGUAGAUUGUUGGAUUGCAAAGAAAAUGAUAAAGAUUCCCUAAAGGAAUUUAUAAGCUGGAAUUCUCGGGUGCCAA: 0.49
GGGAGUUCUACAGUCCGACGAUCAGAGACGGAAAUGGGCAGUUCAGGAGCUCCGUUAGCCUUGGCCUGGGCAGUGACACCUCUAGUGCCCCCAGCAGCCAUGUAGGCAUCCACUCCACCUGCAAAAGACGAUGUGGAAUUCUCGGGUGCCAA: 0.362
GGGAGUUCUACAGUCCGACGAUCAUGAGGAUUGCCCAAUAAGGGGCAGGUACACAUACCUGGCAAAGUGAUGAUGAUGUGAAUUGUUUCCAGUGAGGGGAUUGAGUCAAAACUUGGAUCUCAGGUACCUCAAUUGGAAUUCUCGGGUGCCAA: 1.22
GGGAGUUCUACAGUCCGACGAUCCAUGUUCUUAAAACUCCUGGUGACUUUGUUCUUUUGCCAACGUAGAAAGCACAGUGGACGGGUUGUGUUUGUCCCAGCCCUCUCUGUAGGCUGAGCAGUGCAGCGGCGCCUGGAAUUCUCGGGUGCCAA: 0.505
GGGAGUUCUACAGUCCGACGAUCUGAUUACCGUUCUCUGAGGCACUGGAGCCUUCAUACACCUCACCUGCCUUGGCAAGCCUAUUUUUGUGACCUGGCAGCACAGAUUUAACACUAUUCGUUAAAAGCACUUUUGGAAUUCUCGGGUGCCAA: 0.79

Study 2 — target: CCNE2, cyclin fold, Cln2 fusion (human); technique: yeast growth competition, sequencing; matrix: yeast; notes: strong parent motif; relative to: not given; reading: higher = stronger binding; endpoint: normalised enrichment score
Starting sequence: RBL1 docking peptide (human); GSAKRRLFGEDPP
F8A: 0.459
R5T: 0.13
F8H: 0.412
F8Q: 0.064
D11M: 3.63
G9R: 4.63
G9V: 6.29
S2E: 2.87
P12H: 3.85
G9Y: 4.74
D11P: 3.39
G9C: 5.93
D11S: 4.01
R6T: 0.934
P12Q: 3.78
A3R: 0.768
R6W: 1.12
R6N: 1.83
E10G: 3.06
R5P: 0.147

Study 3 — technique: protein-binding microarray; molecule type: double-stranded DNA, one strand shown; matrix: in vitro; tested at: 2200 nM top; notes: 60-bp whole probe; with: salmon DNA 0.4 mg/ml; relative to: random background probes; reading: higher = stronger binding; endpoint: fitted relative affinity; shared flanks, not repeated: GCCTAGCAC … GTCTTGATTCGCTTGACGCTGCTG
Target: Interferon regulatory factor 7, full length, phosphomimetic (IRF7, Homo sapiens, UniProt Q92985, residues 1-503, S471D/S472D/S475D/S476D/S477D/S483D/S484D/S487D)
Construct (chain): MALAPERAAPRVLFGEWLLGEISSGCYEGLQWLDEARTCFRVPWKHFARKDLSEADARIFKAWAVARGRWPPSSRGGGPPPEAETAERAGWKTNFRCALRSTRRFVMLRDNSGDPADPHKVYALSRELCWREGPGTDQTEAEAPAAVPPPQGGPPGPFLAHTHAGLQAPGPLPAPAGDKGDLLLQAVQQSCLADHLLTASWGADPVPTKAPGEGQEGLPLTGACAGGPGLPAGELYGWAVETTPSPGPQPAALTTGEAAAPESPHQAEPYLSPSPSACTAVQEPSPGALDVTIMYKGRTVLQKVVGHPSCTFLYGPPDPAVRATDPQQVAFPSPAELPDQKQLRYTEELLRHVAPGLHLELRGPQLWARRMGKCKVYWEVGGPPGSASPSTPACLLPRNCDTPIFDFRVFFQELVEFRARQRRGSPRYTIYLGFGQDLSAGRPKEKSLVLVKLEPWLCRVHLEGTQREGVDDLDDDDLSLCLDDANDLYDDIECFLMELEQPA
GACGGGCTCGGTTTCGGGACGTGCTAG: 2.54 z-score
TTAGGTATCGGGACTGGGCTAGTGCTA: -0.592 z-score
TTAGGTCTCGTTATCCTTTAGTGCTAG: 1.17 z-score
GACCGTATCGGGTATCGGGACGTGCTA: 0.127 z-score
GACGGTTTCGGTTTCGTGACGTGCTAG: 13.5 z-score
TTAGGACAGGACTTTCGGTTAGTGCTA: 5.08 z-score
TTAGGTATCCTTCTCCCTTAGTGCTAG: 1.21 z-score
GCCGATTTCAGTATCGAGACGTGCTAG: 1.75 z-score
GACGGACTGCTTAACCTGACGTGCTAG: 0.0762 z-score
TAAGAACTGAGACTGGATTAGTGCTAG: -0.784 z-score
TATTTTCTGAATGTCTTCCCGTGCTAG: 4.35 z-score
TTTTTTTCATATATATATGAGTGCTAG: 1.46 z-score
TTAGGTTTCCTTTCACTTTAGTGCTAG: 5.54 z-score
TCATGTTTCTAATATTCTACTGTGCTA: 1.53 z-score
TTAGGTATCGGGTATCGTTTAGTGCTA: 0.639 z-score
TTAGATATCACTTTCGATTAGTGCTAG: 7.74 z-score
TTAGAACTGAGTATCGAATAGTGCTAG: -0.538 z-score
GACCGACTGGACTATCGGGACGTGCTA: -0.149 z-score
TTAGATATCAGTTTGGATTAGTGCTAG: 0.24 z-score
GACGGTATCCTTTTCCTTACGTGCTAG: 1.63 z-score
TTCCTTCTGCCTGTCCATTCGTGCTAG: 2.51 z-score

Study 4 — technique: protein binding microarray; molecule type: double-stranded DNA, one strand shown; matrix: in vitro; tested at: not given; relative to: not given; reading: higher = stronger binding; endpoint: E-score
Target: Histone acetyltransferase KAT6A, both winged helices, GST fusion (KAT6A, Homo sapiens, UniProt Q92794, residues 1-181)
Notes: 8-mer, flanks averaged, mean of 2 arrays, mostly near background
Construct (chain): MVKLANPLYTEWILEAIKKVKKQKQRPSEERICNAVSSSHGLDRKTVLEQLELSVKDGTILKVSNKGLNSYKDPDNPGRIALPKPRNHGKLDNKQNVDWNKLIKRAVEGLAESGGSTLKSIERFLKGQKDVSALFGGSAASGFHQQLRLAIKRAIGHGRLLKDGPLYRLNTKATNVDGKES
ACAGGTCG: -0.0208
ACGGTCTC: 0.188
TAAGACTA: -0.138
ATGCTAAG: -0.0831
TACTGATA: 0.000695
ACATGCCT: -0.0683
GCACATCC: -0.00329
ATCTAGAC: -0.0761
GGGCTAAA: 0.023
GGACAACA: -0.123
AAGGGCCC: -0.00119
GCCGTCAA: 0.282
AGAGGTCC: -0.0295
ACGCGTAC: 0.308
ACGGTGCC: 0.279
CTATAAGA: -0.192
CCGATCGC: 0.278
CCCTTCTC: -0.0939
GAGACGCC: 0.185
CGTCCGGC: 0.269
ATATGCAC: 2e-05
CGCCTCTC: -0.102

Study 5 — technique: universal PBM; molecule type: double-stranded DNA, one strand shown; matrix: in vitro; tested at: 600 nM; reading: higher = stronger binding; endpoint: E-score
Target: Sal-like protein 4, full length isoform A (SALL4, Homo sapiens, UniProt Q9UJQ4, residues 1-1053)
UniProt Q9UJQ4, sequence (whole entry, looked up): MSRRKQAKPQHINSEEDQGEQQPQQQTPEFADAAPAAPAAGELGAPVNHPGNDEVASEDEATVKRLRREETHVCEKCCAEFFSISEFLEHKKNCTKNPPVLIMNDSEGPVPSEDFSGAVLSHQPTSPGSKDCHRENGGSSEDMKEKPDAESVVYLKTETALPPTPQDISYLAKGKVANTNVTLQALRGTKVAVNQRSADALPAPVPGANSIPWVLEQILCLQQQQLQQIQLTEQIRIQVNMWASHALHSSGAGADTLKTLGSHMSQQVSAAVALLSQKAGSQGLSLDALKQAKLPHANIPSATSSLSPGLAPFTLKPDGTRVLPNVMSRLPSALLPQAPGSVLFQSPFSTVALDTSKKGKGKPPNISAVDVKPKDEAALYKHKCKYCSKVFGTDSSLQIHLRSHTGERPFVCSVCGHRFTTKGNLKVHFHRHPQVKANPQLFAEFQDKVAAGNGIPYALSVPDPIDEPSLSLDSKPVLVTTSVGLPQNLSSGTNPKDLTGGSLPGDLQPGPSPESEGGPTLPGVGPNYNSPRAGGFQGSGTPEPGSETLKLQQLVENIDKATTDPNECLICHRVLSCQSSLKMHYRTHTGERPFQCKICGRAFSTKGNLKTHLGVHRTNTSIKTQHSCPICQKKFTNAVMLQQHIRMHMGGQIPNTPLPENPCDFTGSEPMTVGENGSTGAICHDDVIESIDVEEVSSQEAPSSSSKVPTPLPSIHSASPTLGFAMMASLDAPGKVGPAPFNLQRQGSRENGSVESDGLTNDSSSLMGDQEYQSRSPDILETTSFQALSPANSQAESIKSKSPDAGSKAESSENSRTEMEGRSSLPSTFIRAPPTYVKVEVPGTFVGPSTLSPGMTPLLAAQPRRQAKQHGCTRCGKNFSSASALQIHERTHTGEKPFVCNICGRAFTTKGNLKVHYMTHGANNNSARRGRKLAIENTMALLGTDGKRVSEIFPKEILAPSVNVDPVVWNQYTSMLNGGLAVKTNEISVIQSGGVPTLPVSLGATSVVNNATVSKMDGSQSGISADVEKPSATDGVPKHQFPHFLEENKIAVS
Notes: 8-mer, flanks averaged, mean of replicates
CCTTTCCG: -0.185
AGTCGGAT: 0.105
AATTAAAG: 0.273
CAGATACA: 0.18
CCACTTAA: 0.0474
GATATCCC: 0.000915
GTGTCATA: 0.282
GGATAGGA: -0.11
CACTACGG: -0.313
ACTCGTCG: -0.1
GGCGGCAA: -0.231
ACGGAAGT: -0.0391
GGCCGCCA: -0.309
CCGCCTCA: -0.275
ATAGCAGA: 0.0793
AGCTAGAA: 0.0238
ACGGTTAT: 0.11
GGCATTTA: -0.0646
GAGAGTAC: 0.0273
GTCTCCGA: -0.16
TCATCGGA: 0.0301
ACCTAGCA: 0.0315
CGACCGTA: -0.205
GCTCGCCC: -0.35
GAGTCAAC: 0.038

Study 6 — technique: RNAcompete; molecule type: RNA; matrix: in vitro; tested at: 20 nM; notes: 7-mer, probes averaged, single round; relative to: mean of 7-mers; reading: higher = stronger binding; endpoint: 7-mer Z-score
Target: PABPC1L2, full length, GST fusion (mouse, UniProt A0ABA7IW68)
Target sequence (chain): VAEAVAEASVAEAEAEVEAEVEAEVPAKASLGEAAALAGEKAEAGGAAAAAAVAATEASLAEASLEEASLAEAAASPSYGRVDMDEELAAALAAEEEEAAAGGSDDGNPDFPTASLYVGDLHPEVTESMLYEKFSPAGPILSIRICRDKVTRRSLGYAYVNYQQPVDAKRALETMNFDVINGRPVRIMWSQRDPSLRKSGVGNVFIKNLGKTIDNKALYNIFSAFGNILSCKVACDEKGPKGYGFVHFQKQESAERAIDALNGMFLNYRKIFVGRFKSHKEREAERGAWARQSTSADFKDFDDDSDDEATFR
CAUAGCC: -0.224
GUCGAGA: -0.0917
AAGAGCA: 1.12
CUCGUGA: -0.318
UAUCACG: -0.197
AUCGAUU: -0.246
UCUUCAG: -0.325
AUAAUUG: 0.037
ACAGCCA: 0.148
GCGAGCU: -0.253
GUAACUA: -0.146
CGUUCCU: -0.336
UGCGCAU: -0.28
AAUAGAG: 0.595
UGUUCCC: -0.44
UUUCGCA: -0.389
CUAAGAA: 0.0551
UCAGAGG: 0.0424
CUCGCGU: -0.458

Some of these lines once more (study 6):
UAUCACG: -0.197
AUCGAUU: -0.246
UCUUCAG: -0.325
AUAAUUG: 0.037
ACAGCCA: 0.148
GCGAGCU: -0.253
GUAACUA: -0.146
CGUUCCU: -0.336
UGCGCAU: -0.28
AAUAGAG: 0.595
UGUUCCC: -0.44
UUUCGCA: -0.389
CUAAGAA: 0.0551
